Measured values gathered from unrelated publications.
Values joined by “and” are separate records of one study, mostly repeats; a detail may differ. ± marks the error that the study gave.

| SMILES | cell line | test | test system | setting | scale | endpoint | result |
| --- | --- | --- | --- | --- | --- | --- | --- |
| O=C(O)c1ccc(NCc2cccc([N+](=O)[O-])c2)cc1 | HGF | cell viability, resazurin |  | 72 h, 10% FBS |  | IC50 | > 100 µM |
| COc1ccc(Nc2cnnc3cc(-c4ccc(S(=O)(=O)N5CCN(C)CC5)cc4)ccc23)cc1Cl | C2C12 mouse myoblasts | cytotoxicity |  |  |  | TC50 | > 10 µM |
| CCc1ccc(NC(=O)Nc2c[nH]c3ccccc23)cc1 | reporter cell clones |  |  | concentration not given, 6 h |  | viability | no effect |
| C[C@H]1O[C@@H](O[C@H]2[C@@H](O)C[C@H](O[C@H]3[C@@H](O)C[C@H](O[C@H]4CC[C@@]5(C)[C@H](CC[C@@H]6[C@@H]5C[C@@H](O)[C@]5(C)[C@@H](C7=CC(=O)OC7)CC[C@]65O)C4)O[C@@H]3C)O[C@@H]2C)C[C@H](O)[C@@H]1O | MDCK-II wild type |  |  |  |  | Papp A-B | 15 nm/s |
| CC(C)CC(=O)C(=O)[O-].[Na+] | HCT-8 | Hoechst nuclei count |  | 1 mM, 24 h | relative to: PBS | host cell number | 0.925 ± 0.111 |
| COc1cccc(-c2n[nH]c(SCc3ccccn3)n2)c1OC | CHO-WBL |  |  | 63 µg/mL, 19 h, without S9 |  | micronuclei per binucleated cell | 0.02 |
| CSc1ccc(CNc2ccc(C(=O)O)cc2)cc1 | HGF | cell viability, resazurin |  | 72 h, 10% FBS |  | IC50 | > 100 µM |
| COc1ccn2c(Nc3ccccc3F)c(-c3ccncn3)nc2c1 | MDCK-II wild type |  |  | 10 µM, 2 h, added: elacridar 2 µM |  | Papp A-B | 359 nm/s |
| COc1ccc(CNc2ccc(C(=O)O)cc2)cc1OC | HGF | cell viability, resazurin |  | 72 h, 10% FBS |  | IC50 | > 100 µM |
| N=C(CCl)NCCC[C@H](NC(=O)c1ccc2cc(O)ccc2c1)C(=O)NCc1ccccc1 | A549 and MDA-MB-231 | MTT |  | 48 h, 10% FBS | relative to: CC50 over PAD4 IC50 | therapeutic index | > 400 fold |
| CNc1ccc([N+](=O)[O-])cc1-n1cnc(-c2ccc(C(F)(F)F)cc2)c1 | RAW264.7 |  |  | up to 100 µM, 24 h |  | viability | not toxic |
| CCOCC(=O)N1CCC[C@H](C(=O)NCc2nc(-c3ccc(C)nc3)cs2)C1 | Jurkat | CellTiter-Glo |  | 72 h |  | CC50 | > 50 µM |
| CCc1c(-c2ccccc2)c(-c2ccccc2)nn1-c1ccccc1-c1cccc(OCC(=O)O)c1 | mouse bone marrow macrophages | CCK-8 |  | 50 µM, 4000 cells | relative to: untreated | viability | 77.6% and 60% and 58.8% and 68.6% and 77.9% and 63.7% |
| COCC(=O)N1CCC[C@H](C(=O)NCc2nc(-c3ccc(C)cc3)cs2)C1 | Jurkat | CellTiter-Glo |  | 72 h |  | CC50 | > 50 µM |
| COC(=O)N[C@H](C(=O)N1CCC[C@H]1c1nc(-c2ccc(-c3ccc(-c4c[nH]c([C@@H]5CCCN5C(=O)[C@@H](NC(=O)OC)C(C)C)n4)cc3)cc2)c[nH]1)C(C)C | MDBK |  |  |  |  | CC50 | 36 µM |
| Nc1cccc2c1C(=O)N(C1CCCNC1)C2=O (stereo not shown) | RAW264.7 |  |  | 1 µM, added: LPS 10 ng/mL |  | viability | 100 ± 2% |
| COc1ccc(Nc2cnnc3cc(-c4cnc(N5CCCN(C)CC5)nc4)ccc23)cc1Cl | C2C12 mouse myoblasts | cytotoxicity |  |  |  | TC50 | 2.3 µM |
| CCCN(CCc1cccs1)[C@H]1CCc2c(O)cccc2C1 | RAW264.7 | resazurin | DMEM with 10% FBS |  |  | CC50 | 39.3 ± 9.23 µM |
| O=C(O)[C@@H]1CCCCN1 | HCT-8 | Hoechst nuclei count |  | 1 mM, 24 h | relative to: PBS | host cell number | 0.958 ± 0.068 |
| COC[C@@H](CC(C)C)NC(=O)c1ccc(C)c(C)c1 | primary human lymphocytes |  |  | 158 µg/mL, 20 h |  | mitotic index | 6.3 |
| O=C(O)c1ccc(NCc2cc(Br)ccc2O)cc1 | HGF | cell viability, resazurin |  | 72 h, 10% FBS |  | IC50 | > 100 µM |
| COCC(=O)N1CCC[C@H](C(=O)NCc2nc(-c3ccc(C#N)cc3)cs2)C1 | Jurkat | CellTiter-Glo |  | 72 h |  | CC50 | > 50 µM |
| Cc1cc(C(=O)NC(C)(C)COc2cccc3c2C(N)=NS(=O)(=O)N3)cc(C)n1 | human peripheral blood lymphocytes | CBPI, preliminary test |  | 0.6 µg/mL, 4 h | relative to: vehicle control | cytotoxicity | -3% |
| COc1cnc(Nc2cnnc3ccc(-c4ccc(N5CCN(C)CC5)cc4)cc23)nc1 | C2C12 mouse myoblasts | cytotoxicity |  |  |  | TC50 | 6.4 µM |
| C/C(O)=C(\C#N)C(=O)Nc1ccc(C(F)(F)F)cc1 | Jurkat |  | culture medium | 10 µM, 48 h |  | free drug concentration | 2.6 µM |
| C=C1C(=O)O[C@H]2[C@H]1CC/C(C)=C/CC[C@@]1(C)O[C@@H]21 | THP-1 ASC-GFP monocytes | MTT |  | 24 h |  | maximum tolerated dose | 3.11 µg/mL |

| SMILES | cell line | test | test system | setting | scale | endpoint | result |
| --- | --- | --- | --- | --- | --- | --- | --- |
| Cc1ccc(CNC(=O)Cn2cc(CSc3nc4ccccc4[nH]3)nn2)cc1 | HEK293 | MTT |  | 7.81 ppm |  | viability | 48.9% |
| O=C(O)c1ccc(NCc2cccc(O)c2O)cc1 | HGF | cell viability, resazurin |  | 72 h, 10% FBS |  | IC50 | > 100 µM |
| CC(C)=CCC[C@@]1(C)C(CC[C@H]2[C@]3(C)CC[C@H](O)C(C)(C)O[C@H]3CC[C@@]2(C)O)=C(C)CC[C@H]1O | KB-C2 (P-gp overexpressing) | cell viability, MTT | DMEM with 10% bovine serum | 72 h |  | IC50 | > 50 µM |
| COc1ccc(CNc2ccc(C(=O)O)cc2)cc1 | HGF | cell viability, resazurin |  | 72 h, 10% FBS |  | IC50 | > 100 µM |
| O=C([O-])[C@@H](O)CO.[Na+] | HCT-8 | Hoechst nuclei count |  | 1 mM, 24 h | relative to: PBS | host cell number | 0.997 ± 0.064 |
| Cc1cnc(CNC(=O)c2c(=O)c3ccc(N4CCCN(C)CC4)nc3n3c2sc2ccccc23)cn1 | MA104 | cytotoxicity, resazurin |  | 5 days |  | CC50 | 0.88 ± 0.1 µM |
| CC1(C)CCC(c2ccc(Cl)cc2)=C(CN2CCN(c3ccc(C(=O)NS(=O)(=O)c4ccc(N[C@H](CCN5CCOCC5)CSc5ccccc5)c(S(=O)(=O)C(F)(F)F)c4)cc3)CC2)C1 | mouse ileum enteroid monolayers | pulse-chase lymph lipoprotein secretion | medium | 50 % of saturated solubility, 2 h, chylomicron peak interval, oleic acid/2-monoolein |  | fraction of dose absorbed | 1.49 ± 0.17% |
| COc1ccc(Nc2cnnc3cc(-c4cnc(N5CCN(C)CC5)nc4)ccc23)cc1Cl | C2C12 mouse myoblasts | cytotoxicity |  |  |  | TC50 | > 10 µM |
| Cc1cc(C)c(NC(=O)CN(CC(=O)[O-])CC(=O)[O-])c(C)c1Br.Cc1cc(C)c(NC(=O)CN(CC(=O)[O-])CC(=O)[O-])c(C)c1Br.[99Tc+4] | human sandwich-cultured hepatocytes |  |  |  |  | uptake clearance | 1.42 ± 0.726 L/h/kg |
| Cn1nc2c(=O)n(C3CC3)ncc2c1[C@](N)(c1ccc(C(F)(F)F)c(Cl)c1)C1CC1 | Jurkat | CellTiter-Glo |  |  |  | CC50 | 19 ± 2.8 µM |
| COc1cccc(CNc2ccc(C(=O)O)cc2)c1OC | HGF | cell viability, resazurin |  | 72 h, 10% FBS |  | IC50 | > 100 µM |
| Cn1nc2c(=O)n(C3CC3)ccc2c1[C@](O)(c1cnc(C(F)(F)F)c(Cl)c1)C(F)(F)F | Jurkat | CellTiter-Glo |  |  |  | CC50 | 14 ± 0.71 µM |
| COCC(=O)N1CCC[C@H](C(=O)NCc2nc(-c3cccnc3)cs2)C1 | Jurkat | CellTiter-Glo |  | 72 h |  | CC50 | > 50 µM |
| CC(=O)N[C@@H](CC(=O)O)C(=O)O | HCT-8 | Hoechst nuclei count |  | 1 mM, 24 h | relative to: PBS | host cell number | 0.987 ± 0.037 |
| Cc1cc(Nc2ccc(S(F)(F)(F)(F)F)cc2)n2nc(C(C)(F)F)nc2n1 | Jurkat |  | culture medium | 5 µM, 48 h |  | free drug concentration | 0.6 µM |
| Cc1ccc(Nc2cnnc3ccc(-c4ccc(N5CCN(C)CC5)cc4)cc23)cn1 | C2C12 mouse myoblasts | cytotoxicity |  |  |  | TC50 | 5.1 µM |
| COc1cc2ncnc(Nc3ccc(Oc4ccccc4)c(C)c3C)c2cc1OC.Cl | SK-MEL-2 (NRAS Q61R) | resazurin |  | concentration not given, 72 h, added: trametinib 0 nM |  | viability fraction | 0.875 and 0.617 and 0.987 and 0.905 and 0.946 and 0.886 and 0.918 |
| CC(=O)O | HCT-8 | Hoechst nuclei count |  | 1 mM, 24 h | relative to: PBS | host cell number | 0.953 ± 0.085 |
| CN1CCC[C@@H](N2C(=O)c3cccc(N)c3C2=O)C1 | RAW264.7 |  |  | 1 µM, added: LPS 10 ng/mL |  | viability | 100 ± 2% |
| OC[C@H]1O[C@@H](c2ccc(Cl)c(Cc3ccc(OC4CCOCC4)cc3)c2)[C@H](O)[C@@H](O)[C@@H]1O | H9c2 | CCK-8 |  | 0.1 µM, added: glucose deprivation | relative to: control | viability | 53.6 ± 4.51% |
| CCC(=O)O | HCT-8 | Hoechst nuclei count |  | 1 mM, 24 h | relative to: PBS | host cell number | 0.852 ± 0.065 |
| OC[C@H]1O[C@@H](c2ccc(Cl)c(Cc3ccc(O[C@H]4CCOC4)cc3)c2)[C@H](O)[C@@H](O)[C@@H]1O | H9c2 | CCK-8 |  | 0.1 µM, added: glucose deprivation | relative to: control | viability | 46.2 ± 9.22% |
| CC(=O)N[C@@H](CCCN)C(=O)O | HCT-8 | Hoechst nuclei count |  | 1 mM, 24 h | relative to: PBS | host cell number | 1.01 ± 0.043 |
| COc1cccc2c1C(=O)c1c(O)c3c(c(O)c1C2=O)C[C@@](O)(C(=O)CO)C[C@@H]3O[C@H]1C[C@H](N)[C@H](O)[C@H](C)O1 | RAW264.7 | cytotoxicity, MTT |  |  |  | IC50 | 0.25 ± 0.03 µM |
| CCC(C)C(=O)C(=O)[O-].[Na+] (stereo not shown) | HCT-8 | Hoechst nuclei count |  | 1 mM, 24 h | relative to: PBS | host cell number | 0.977 ± 0.068 |
| O=C(O)c1ccc(NCc2ccc(Br)cc2)cc1 | HGF | cell viability, resazurin |  | 72 h, 10% FBS |  | IC50 | > 100 µM |

For quick reference, copied from above:
| SMILES | cell line | test | test system | setting | scale | endpoint | result |
| --- | --- | --- | --- | --- | --- | --- | --- |
| CCc1ccc(NC(=O)Nc2c[nH]c3ccccc23)cc1 | reporter cell clones |  |  | concentration not given, 6 h |  | viability | no effect |
| COC(=O)N[C@H](C(=O)N1CCC[C@H]1c1nc(-c2ccc(-c3ccc(-c4c[nH]c([C@@H]5CCCN5C(=O)[C@@H](NC(=O)OC)C(C)C)n4)cc3)cc2)c[nH]1)C(C)C | MDBK |  |  |  |  | CC50 | 36 µM |
| COc1ccc(CNc2ccc(C(=O)O)cc2)cc1 | HGF | cell viability, resazurin |  | 72 h, 10% FBS |  | IC50 | > 100 µM |
